Measured values of several laboratories.
Lines come from different studies, so protocols differ. Several values in a cell are separate wells, animals, samples, runs or records.
Target: Endothelin-1 receptor (EDNRA, Homo sapiens, UniProt P25101)

Cc1cc(Nc2nc(C[C@@]3(C(=O)O)CCN(Cc4cccc(Cl)c4F)[C@H](C)C3)cc(C)c2F)[nH]n1 has an inhibition of -5.19% (inhibitor; 10 µM).
CCc1nnc(-c2c(OC)cc(-c3cnc4cc(-c5cnn(C)c5)ccn34)cc2OC)o1 gave a remaining binding of 98.8% (agonist radioligand, radioligand binding; 10 µM, SafetyScreen44 ETA replicate 2; lower = stronger displacement).
The inhibition of Cc1sc2c(c1C)C(c1ccc(Cl)cc1)=NC(CC(=O)OC(C)(C)C)c1nnc(C)n1-2 (stereo not drawn) is reported as 16% (ligand displacement, radioligand; 1 µM).
With CN[C@@H]1[C@H](O)[C@H](NC)[C@H]2O[C@]3(O)[C@H](O[C@@H]2[C@H]1O)O[C@H](C)C[C@H]3NC(=O)Cc1ccc(Cl)cn1 the inhibition was -8% (ligand displacement, radioligand; 10 µM).
CCN(CC)CCOc1ccc(-c2nnn(Cc3ccc(OC)cc3)c2N)cc1 has an inhibition of -3.49% (FLIPR calcium; HEK293; 10 µM).
For Cc1ccc2c(n1)c(-c1cccc(S(C)(=O)=O)c1)c(C)n2C/C(F)=C/CN, the inhibition was -5% (ligand displacement, radioligand; 10 µM).
With O=C(O)c1ccc(-c2nc(-c3ccccc3Cl)c3sccn23)cc1 the specific binding was 102% and 110% (radioligand binding, safety screen panel; 10 µM; baseline: control).
With CS(C)(=O)=Nc1ccc(-c2ccc(-c3nc4cc(O[C@@H]5CO[C@H]6[C@@H]5OC[C@H]6O)[nH]c4cc3F)cc2)cc1 the inhibition was 30% (calcium signal, antagonist; 10 µM).
For Cc1cc(-c2ccc3ccccc3c2)nnc1NCCN1CCN(C)CC1, the activity was 0% (antagonist; 10000 nM; baseline: control).
C/C(=N\OCCCN1CCCCC1)c1ccc(C(F)(F)F)cc1 has an activation of 5.73% (agonist, IP-One; 10 µM).
The response of N[C@H](C(=O)N1CCCC1)C1CCN(c2nccc3c(-c4ncc(Cl)cc4Cl)cccc23)CC1 is reported as 4% (functional response, agonist; 10 µM).
COc1ccc(F)cc1S(=O)(=O)Nc1cnc2c(c1)C(=O)NCCO2 gave an inhibition of 4% (ligand displacement, radioligand; 10 µM).

Some of these lines once more:
The response of N[C@H](C(=O)N1CCCC1)C1CCN(c2nccc3c(-c4ncc(Cl)cc4Cl)cccc23)CC1 is reported as 4% (functional response, agonist; 10 µM).
